# Assay results of several laboratories.
# Compare with care: the assays were run in different laboratories. “And” joins repeats or separate records; there may be more than shown. ± marks the error that the study gave.
# Chain of UniProt Q13557 (whole entry, looked up): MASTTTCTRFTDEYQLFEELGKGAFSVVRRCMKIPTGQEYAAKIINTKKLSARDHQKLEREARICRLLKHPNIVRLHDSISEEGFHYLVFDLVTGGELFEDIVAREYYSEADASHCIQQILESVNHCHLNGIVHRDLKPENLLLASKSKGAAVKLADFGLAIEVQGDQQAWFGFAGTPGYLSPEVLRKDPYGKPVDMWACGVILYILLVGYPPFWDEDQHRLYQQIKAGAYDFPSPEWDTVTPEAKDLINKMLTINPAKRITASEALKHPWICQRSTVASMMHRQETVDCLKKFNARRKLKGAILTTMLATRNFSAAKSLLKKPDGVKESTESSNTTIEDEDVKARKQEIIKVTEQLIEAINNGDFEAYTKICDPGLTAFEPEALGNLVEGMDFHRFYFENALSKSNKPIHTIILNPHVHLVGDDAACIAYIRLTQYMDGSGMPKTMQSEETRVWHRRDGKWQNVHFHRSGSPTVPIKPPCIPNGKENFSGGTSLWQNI
SMILES,target or system,assay,test system,setting,how to read,endpoint,result
COc1ccccc1-c1ccncc1C(=O)Nc1nnc(OCc2ccc(Cl)cc2)s1,DLD-1 BRCA2-/-,,,"0.125 µM, single replicate",baseline: untreated,colony survival,76.8% and 55.6% and 79.3%
CSCC[C@H](NC(=O)[C@@H](NC(=O)[C@H](CCC(N)=O)NC(=O)[C@H](CO)NC(=O)[C@@H](N)C(C)C)[C@@H](C)O)C(=O)N[C@@H](CCCNC(=N)N)C(=O)N[C@@H](CCC(N)=O)C(=O)N[C@H](C(=O)N[C@@H](C)C(=O)N[C@H](C(=O)N1CCC[C@H]1C(=O)N[C@@H](CC(C)C)C(=O)N[C@@H](CC(C)C)C(=O)N[C@@H](Cc1c[nH]c2ccccc12)C(=O)N[C@@H](Cc1ccccc1)C(=O)N[C@@H](Cc1c[nH]c2ccccc12)C(=O)N[C@H](C(=O)NCC(=O)N[C@@H](CO)C(=O)N[C@@H](CC(C)C)C(=O)NCCOCCOCCOCCOCCOCCOCCOCCOCCOCCOCCOCCOCCC(=O)N[C@@H](CS)C(N)=O)[C@@H](C)O)C(C)C)[C@@H](C)O,H2882 lung carcinoma,"cell binding, phage binding, item: output/input phage",,"10 min, 37 °C",baseline: control phage,selectivity ratio,1.5 ± 0.36
COc1ccccc1-c1n[nH]c2nc(N[C@H]3CC[C@H](NS(=O)(=O)CC(C)C)CC3)ncc12,,"bead binding, competition bead pull-down, item: LMJF.27.0240",Leishmania donovani extract,10 µM,baseline: vehicle,relative abundance,1.71
O=C(C[Se]C(=O)c1ccccc1Nc1ccccc1)Nc1cccc(C(F)(F)F)c1,NCI60 melanoma subpanel,"cytotoxicity, inhibitor",,five-dose,,CC50,6.35 µM
Cc1cc(Oc2nc(N3CC[C@@H](c4ccncc4)C3)ncc2F)[nH]n1,colon cancer cell lines,cell proliferation,,average over lines,,IC50,44.7 µM
C=CC12CN(C)C3C4COC(CC41)C1(C(=O)N(OC)c4ccccc41)C32 (centres unmarked),HT-22,CCK-8,,"up to 100 µM, 24 h",,viability,no effect
O=C1NC(=O)c2c1c1cc(F)c[n+]3c1c1c2c2cc(O)ccc2[n]1[Ru-4]312([N]=C=S)[S+]3CC[S+]1CC[S+]2CC3 (centres unmarked),"Calcium/calmodulin-dependent protein kinase type II subunit delta (CAMK2D, Homo sapiens, UniProt Q13557)",enzyme activity,,"100 nM, human enzyme, together with: 10 µM ATP",baseline: untreated,remaining activity,5%
CC[C@H](C)[C@H](NC(=O)[C@H](Cc1c[nH]c2ccccc12)NC(=O)[C@H](CCCCN)NC(=O)[C@H](CO)NC(=O)[C@H](CC(C)C)NC(=O)[C@H](Cc1ccccc1)NC(=O)[C@@H](NC(=O)[C@H](CCCCN)NC(=O)[C@H](CC(C)C)NC(=O)[C@H](CC(C)C)NC(=O)[C@H](CCCCN)NC(=O)[C@@H]1CCCN1)[C@@H](C)O)C(=O)NCC(=O)N[C@@H](CS)C(N)=O,human red blood cells,,,pH 7.4,baseline: Triton X-100,EC50,> 100 µM
CC(C)[C@H](NC(=O)[C@H](CCCNC(=N)N)NC(=O)[C@@H]1CCCN1C(=O)[C@@H](NC(=O)[C@H](C)NC(=O)[C@H](Cc1ccc(O)cc1)NC(=O)[C@H](CCC(N)=O)NC(=O)[C@H](CCCCN)NC(=O)[C@H](CCCNC(=N)N)NC(=O)[C@@H]1CCCN1C(=O)[C@H](CCC(=O)O)NC(=O)[C@@H](NC(=O)[C@H](C)N)[C@@H](C)O)[C@@H](C)O)C(=O)N[C@@H](Cc1ccccc1)C(=O)N[C@@H](Cc1c[nH]c2ccccc12)C(=O)N[C@H](C(=O)N[C@@H](CC(=O)O)C(=O)N[C@@H](C)C(=O)N1CCC[C@H]1C(=O)NCC(=O)NCCOCCOCCOCCOCCOCCOCCOCCOCCOCCOCCOCCOCCC(=O)N[C@@H](CS)C(N)=O)[C@@H](C)O,HCC461,phage binding,,,baseline: targeting over control phage,selectivity ratio,4.2 ± 1.7
CC(O)CN.O=C(O)C(Cl)Cl,Eleusine indica,,,"15 mg/mL, 21 days, pre-emergence, greenhouse",,herbicidal inhibition,0%
O=C(C[Se]C(=O)c1ccccc1)Nc1cccc(C(F)(F)F)c1,NCI60 leukaemia subpanel,NCI60 five-dose screen,,,,CC50,8.56 µM
CSCC[C@H](N)C(=O)N[C@@H](C)C(=O)N[C@@H](Cc1c[nH]c2ccccc12)C(=O)N[C@@H](Cc1c[nH]cn1)C(=O)N[C@@H](CC(=O)O)C(=O)N[C@@H](CC(=O)O)C(=O)N[C@@H](CCC(=O)O)C(=O)N[C@@H](CCC(=O)O)C(=O)N[C@@H](Cc1ccccc1)C(=O)N[C@@H](C)C(=O)N[C@@H](CCCNC(=N)N)C(=O)N[C@@H](CCCNC(=N)N)C(=O)N[C@@H](CCCNC(=N)N)C(=O)N[C@@H](CCCNC(=N)N)C(=O)NCCCCCC(=O)NCCCCC(NC(=O)CCCCCNC(=O)[C@H](CCCNC(=N)N)NC(=O)[C@H](CCCNC(=N)N)NC(=O)[C@H](CCCNC(=N)N)NC(=O)[C@H](CCCNC(=N)N)NC(=O)[C@H](C)NC(=O)[C@H](Cc1ccccc1)NC(=O)[C@H](CCC(=O)O)NC(=O)[C@H](CCC(=O)O)NC(=O)[C@H](CC(=O)O)NC(=O)[C@H](CC(=O)O)NC(=O)[C@H](Cc1c[nH]cn1)NC(=O)[C@H](Cc1c[nH]c2ccccc12)NC(=O)[C@H](C)NC(=O)[C@@H](N)CCSC)C(=O)NCCCCC(NC(=O)C(CCCCNC(=O)CCCCCNC(=O)[C@H](CCCNC(=N)N)NC(=O)[C@H](CCCNC(=N)N)NC(=O)[C@H](CCCNC(=N)N)NC(=O)[C@H](CCCNC(=N)N)NC(=O)[C@H](C)NC(=O)[C@H](Cc1ccccc1)NC(=O)[C@H](CCC(=O)O)NC(=O)[C@H](CCC(=O)O)NC(=O)[C@H](CC(=O)O)NC(=O)[C@H](CC(=O)O)NC(=O)[C@H](Cc1c[nH]cn1)NC(=O)[C@H](Cc1c[nH]c2ccccc12)NC(=O)[C@H](C)NC(=O)[C@@H](N)CCSC)NC(=O)CCCCCNC(=O)[C@H](CCCNC(=N)N)NC(=O)[C@H](CCCNC(=N)N)NC(=O)[C@H](CCCNC(=N)N)NC(=O)[C@H](CCCNC(=N)N)NC(=O)[C@H](C)NC(=O)[C@H](Cc1ccccc1)NC(=O)[C@H](CCC(=O)O)NC(=O)[C@H](CCC(=O)O)NC(=O)[C@H](CC(=O)O)NC(=O)[C@H](CC(=O)O)NC(=O)[C@H](Cc1c[nH]cn1)NC(=O)[C@H](Cc1c[nH]c2ccccc12)NC(=O)[C@H](C)NC(=O)[C@@H](N)CCSC)C(N)=O (some centres unmarked),mouse cells,co-immunoprecipitation,,"concentration not given, unit not given, together with: RANKL",baseline: RANKL alone,MKK3-TRAF6 association,0.814
CC(=O)NCSC[C@H](NC(=O)[C@@H]1CCCN1C(=O)[C@H](C)NC(=O)[C@@H](NC(=O)CNC(=O)[C@@H](NC(=O)[C@H](Cc1c[nH]c2ccccc12)NC(=O)[C@H](C)NC(=O)CNC(=O)[C@H](CO)NC(=O)[C@H](C)NC(=O)[C@@H]1CCCN1C(=O)[C@H](Cc1c[nH]c2ccccc12)NC(=O)[C@H](C)NC(=O)[C@H](C)NC(=O)[C@@H](N)Cc1ccc(O)cc1)[C@@H](C)O)[C@@H](C)O)C(=O)N[C@@H](CO)C(=O)N[C@@H](C)C(=O)NCC(=O)N[C@H](C(=O)NCCOCCOCCOCCOCCOCCOCCOCCOCCOCCOCCOCCOCCC(=O)N[C@@H](CS)C(N)=O)[C@@H](C)O,H1299 lung large cell carcinoma,"cell binding, phage binding, item: output/input phage",,"10 min, 37 °C",baseline: control phage,selectivity ratio,83 ± 17
O=C(O)c1ccc(-c2nc(-c3ccccc3Cl)c3sccn23)cc1,HEL,flow cytometry,,concentration not given,baseline: cells,sub-G0 cells,2.15% and 1.57% and 2.51%
C[C@H]1O[C@@H]2C3=C(O[C@]2(C)[C@@]1(O)C=O)C(=O)c1c(O)cccc1C3=O,A549 and Vero,MTT,,,baseline: CC50 Vero over EC50 A549,selectivity index,1.97
O=C1NC2(CC2)COc2ncc(F)cc2[C@H]2COCCN2c2ccn3ncc1c3n2,,,"Sprague-Dawley rat, male, blood","oral, 20 mg/kg/day, end of recovery, 4-week repeated-dose toxicity",baseline: red blood cells,reticulocytes,2.42 ± 0.44%
CC(C)C[C@H](NC(=O)[C@H](CC(=O)O)NC(=O)CNC(=O)[C@@H](N)CCCNC(=N)N)C(=O)N[C@@H](C)C(=O)N[C@H](C(=O)N[C@@H](CC(C)C)C(=O)N[C@@H](CCCNC(=N)N)C(=O)N[C@@H](CCC(N)=O)C(=O)N[C@@H](CC(C)C)C(=O)N[C@@H](C)C(=O)N[C@@H](CCC(N)=O)C(=O)N[C@@H](CCC(=O)O)C(=O)N[C@@H](CC(=O)O)C(=O)NCC(=O)N[C@H](C(=O)N[C@H](C(=O)NCC(=O)N[C@H](C(=O)N[C@@H](CCCNC(=N)N)C(=O)NCCOCCOCCOCCOCCOCCOCCOCCOCCOCCOCCOCCOCCC(=O)N[C@@H](CS)C(N)=O)C(C)C)C(C)C)C(C)C)[C@@H](C)O,SKOV3 ovarian cancer,"cell binding, phage binding, item: output/input phage",,"10 min, 37 °C",baseline: control phage,selectivity ratio,7.7 ± 4.9
CC[C@H](C)[C@H](NC(=O)[C@H](C)NC(=O)CNC(=O)[C@H](Cc1ccccc1)NC(=O)[C@H](CC(N)=O)NC(=O)[C@H](CC(N)=O)NC(=O)[C@H](CO[C@@H]1O[C@H](CO)[C@@H](O)[C@H](O)[C@H]1NC(C)=O)NC(=O)[C@H](CO)NC(=O)[C@H](Cc1c[nH]cn1)NC(=O)[C@@H](NC(=O)[C@H](CC(C)C)NC(=O)[C@H](Cc1ccccc1)NC(=O)[C@H](CC(N)=O)NC(=O)[C@H](C)NC(=O)[C@@H](N)CC(C)C)C(C)C)C(=O)N[C@@H](CC(C)C)C(N)=O,INS-1,MTT,,"5 equivalents to hIAPP, 24 h, together with: hIAPP 1 µM",,viability,71.4% and 74.1%
CC1CCC2C(C)C(OC(=O)CCC(=O)N3CCC(Nc4ccc(S(=O)(=O)NC(=O)c5ccc(N6CCN(CC7=C(c8ccc(Cl)cc8)CC(C)(C)CC7)CC6)cc5Oc5cnc6[nH]ccc6c5)cc4[N+](=O)[O-])CC3)OC3OC4(C)CCC1C32OO4 (centres unmarked),THP-1,"annexin V/PI flow cytometry, item: annexin V+/PI+",,"0.2 µM, 24 h",,late apoptotic cells,3.5%
O=C(C[Se]C(=O)c1cc2ccccc2[nH]1)Nc1cccc(C(F)(F)F)c1,NCI60 leukaemia subpanel,NCI60 five-dose screen,,,,CC50,4.74 µM
CC(C)C[C@@H](/C=C/[C@H](Cc1ccccc1)C(=O)N1CCC[C@H]1C(=O)N[C@H](C(=O)NC1CC(C)(C)N([O])C(C)(C)C1)C(C)C)NC(=O)OC(C)(C)C,BJeLR,"protection from ferroptosis, PrestoBlue",,"24 h, together with: erastin 10 µM",,EC50,0.376 µM
NC(=O)N/N=C/c1ccc(OCc2cccc(F)c2)cc1,IMR-32,,,"300 µg/mL, 24 h",higher = more activity,catalase activity (OD450),0.049 a.u.
Cc1cc(C(=O)Nc2nc3cccc(C)c3n2[C@H]2CCCCN(C(=O)/C=C/CN(C)C)C2)ccn1,Trypanosoma brucei brucei,,CLK1 C215S mutant expressing,"10 x EC50, 36 h",,cell growth,3000% and 4800% and 4130%
NC(=O)N/N=C/c1ccc(OCc2ccccc2)cc1,IMR-32,,,"500 µg/mL, 24 h",higher = more activity,catalase activity (OD450),0.382 a.u.
O=C(C[Se]C(=O)c1ccco1)Nc1cccc(C(F)(F)F)c1,NCI60 leukaemia subpanel,NCI60 five-dose screen,,,,GI50,5.63 µM
CC(C)(C)C(=O)OCOP(=O)(OCOC(=O)C(C)(C)C)C1CCCN(O)C1=O (centres unmarked),NCI-H322M,,,,,GI50,0.673 µM
CC(C)CC(O)(CC(C)C)c1cn(C(=O)N2CCCC2)nn1,mouse T-cells,"SILAC proteomics, item: SKP1A",,"1 nM, 6 h, unit not given",baseline: DMSO,protein level,1.04
O=C(C[Se]C(=O)c1cccs1)Nc1cccc(C(F)(F)F)c1,NCI60 melanoma subpanel,"cell growth, inhibitor",,five-dose,,GI50,1.63 µM
COc1ccccc1-c1n[nH]c2nc(NC3CCN(C(=O)Cc4ccc(F)cc4F)CC3)ncc12,,"bead binding, competition bead pull-down, item: LINJ.32.2780",Leishmania donovani extract,10 µM,baseline: vehicle,relative abundance,0.99

# For quick reference, copied from above:
SMILES,target or system,assay,test system,setting,how to read,endpoint,result
O=C(C[Se]C(=O)c1cccs1)Nc1cccc(C(F)(F)F)c1,NCI60 melanoma subpanel,"cell growth, inhibitor",,five-dose,,GI50,1.63 µM
COc1ccccc1-c1n[nH]c2nc(NC3CCN(C(=O)Cc4ccc(F)cc4F)CC3)ncc12,,"bead binding, competition bead pull-down, item: LINJ.32.2780",Leishmania donovani extract,10 µM,baseline: vehicle,relative abundance,0.99
